Published values gathered from unrelated publications.
Parts stem from different laboratories: compare values within a part only. Positions count from the first letter of the parent shown.

Sample 1 — method: DHFR PCA, deep sequencing; medium: yeast; together with: (+)-ABA 0.0091 µM; baseline: wild-type fitted maximum; reading: higher = stronger binding
Target: ABI1, truncated, D143A, DHFR fusion (Arabidopsis thaliana)
Notes: methotrexate growth selection, single substitutions
Starting sequence: PYL1, truncated, DHFR fusion (Arabidopsis thaliana); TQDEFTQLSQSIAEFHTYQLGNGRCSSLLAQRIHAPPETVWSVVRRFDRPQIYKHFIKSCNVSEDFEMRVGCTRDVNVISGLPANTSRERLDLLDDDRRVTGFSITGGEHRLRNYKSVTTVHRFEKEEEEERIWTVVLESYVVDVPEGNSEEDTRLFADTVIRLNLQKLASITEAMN; partner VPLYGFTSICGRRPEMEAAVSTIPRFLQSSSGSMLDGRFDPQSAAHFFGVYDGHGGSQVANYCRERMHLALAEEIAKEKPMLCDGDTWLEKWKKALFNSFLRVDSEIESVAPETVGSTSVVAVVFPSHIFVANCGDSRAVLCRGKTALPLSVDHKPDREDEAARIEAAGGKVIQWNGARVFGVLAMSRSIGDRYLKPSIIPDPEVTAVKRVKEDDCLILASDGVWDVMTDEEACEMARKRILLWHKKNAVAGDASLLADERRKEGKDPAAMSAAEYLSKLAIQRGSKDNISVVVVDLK
Change | relative binding score [%]
G21R | 21.5
T39R | 17.4
I172E | -1.66
S117A | 2.21
V40H | -0.849
E130F | 5.97
E147Q | 16
L169D | -4.15
R90A | -1.42

Sample 2 — target: CREM, bZIP domain (human); method: DHFR protein complementation; medium: yeast; baseline: wild-type JUN-FOS pair; reading: higher = stronger binding
Notes: single substitutions, most at no-binding floor
Starting sequence: JUN, bZIP domain (human); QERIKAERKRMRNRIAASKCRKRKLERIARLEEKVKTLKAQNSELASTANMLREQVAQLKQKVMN; partner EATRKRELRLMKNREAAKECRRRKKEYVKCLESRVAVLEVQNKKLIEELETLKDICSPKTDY
Change | binding fitness
I28R | -1.48 natural log
V35K | -1.36 natural log
A46W | -1.47 natural log
E44A | -1.26 natural log
I28T | -1.54 natural log
A29P | -1.42 natural log
A46H | -1.47 natural log
S43D | -1.37 natural log

Sample 3 — target: CCNB1, cyclin fold, Cln2 fusion (human); method: yeast growth competition, sequencing; medium: yeast; notes: weak parent motif; baseline: not given; reading: higher = stronger binding
Starting sequence: USP37 docking peptide (human); PSAKRSLGFLPQP
Change | normalised enrichment score
PSAKRSLAFLPQP [G8A] | -0.0913
PSAKRSLGALPQP [F9A] | -0.238
PSAKRSAGFLPQP [L7A] | 0.00264
PSAKRALGFLPQP [S6A] | 0.351
PSAKRSLGFLPAP [Q12A] | 0.544
PSAARSLGFLPQP [K4A] | 0.215

Further values, each from its own experiment
Substance | target | assay | test system | conditions | how to read | measurement | value
PhoQ, residues 284 288 289 292 302 303 GLASVI | PhoP, residues 12 14 15 18 19 MHTVL (Escherichia coli, UniProt P23836) | Sort-seq, refers to: YFP reporter | E. coli | PhoQ-PhoP variant library, together with: 10 µM Mg2+ | baseline: high Mg2+ state, higher = stronger signaling | fold induction | 7.48

Repeated from above (sample 2):
Change | binding fitness
E44A | -1.26 natural log
